{"data": "Measured values gathered from unrelated publications", "cofactor-independent phosphoglycerate mutase W431C": "cofactor-independent phosphoglycerate mutase (Metamycoplasma orale, UniProt A0A448ZXM1, W431C)", "note": "Protocols differ between the studies behind these lines. “And” joins repeats or separate records; there may be more than shown. ± gives the spread as reported."}
{"SMILES": "COC(=O)Cn1c2ccc([N+](=O)[O-])cc2c(=O)n1Cc1ccccc1", "target or system": "Leishmania amazonensis", "system": "promastigotes, MHOM/BR/77/LTB0016", "how to read": "baseline: CC50 macrophages over IC50 promastigotes", "measurement": "selectivity index", "result": 285}
{"SMILES": "CC[C@H](C)[C@H](NC(=O)[C@H](CCCNC(=N)N)NC(=O)[C@@H](NC(=O)[C@H](C)NC(=O)[C@@H](NC(=O)[C@@H](NC(=O)[C@H](CC(C)C)NC(=O)[C@H](CCCNC(=N)N)NC(=O)[C@@H](N)C(C)C)[C@@H](C)CC)C(C)C)C(C)C)C(=O)N[C@@H](Cc1c[nH]c2ccccc12)C(=O)N[C@@H](CCCNC(=N)N)C(=O)N[C@@H](CCCNC(=N)N)C(N)=O", "target or system": "Galleria mellonella", "setting": "concentration not given, 48 h, uninfected larvae, toxicity", "measurement": "survival", "result": "90 ± 14%"}
{"SMILES": "C[C@@H](O)[C@@H]1NC(=O)[C@H](CC(=O)O)NC(=O)[C@@H]2CCCN2C(=O)[C@H](Cc2ccc(O)cc2)NC(=O)CSC[C@@H](C(N)=O)NC(=O)[C@H](Cc2c[nH]cn2)NC(=O)[C@H](Cc2c[nH]c3ccccc23)NC(=O)[C@H](CCC(=O)O)NC(=O)[C@H](CC(=O)O)NC(=O)[C@H](Cc2ccc(O)cc2)NC(=O)[C@H](Cc2ccc(O)cc2)NC(=O)[C@H](Cc2c[nH]c3ccccc23)NC(=O)[C@H](Cc2c[nH]c3ccccc23)NC(=O)[C@H](CC(N)=O)NC1=O", "target or system": "cofactor-independent phosphoglycerate mutase W431C", "assay": "biochemical", "system": "Mycoplasma orale", "measurement": "AC50", "result": "3310 nM"}
{"SMILES": "CC1(C)C(C=C(Cl)Cl)C1C(=O)OCc1ccccc1 (stereo not drawn)", "target or system": "Anopheles funestus", "assay": "tile contact bioassay", "system": "FANG, susceptible, female adults", "setting": "30 min exposure, 24 h mortality", "measurement": "LC50", "result": "1.19 mg/m²"}
{"SMILES": "NCCn1c2ccc([N+](=O)[O-])cc2c(=O)n1Cc1ccccc1", "target or system": "Leishmania amazonensis", "system": "promastigotes, MHOM/BR/77/LTB0016", "how to read": "baseline: CC50 macrophages over IC50 promastigotes", "measurement": "selectivity index", "result": 155}
{"SMILES": "CC(=O)Oc1ccc(Cn2cc(F)c(=O)[nH]c2=O)cc1C1OC(c2ccc(Cl)cc2)=NN1C(C)=O (stereo not drawn)", "target or system": "Leishmania donovani", "system": "RAW264.7", "setting": "intramacrophage amastigotes", "how to read": "baseline: CC50 over IC50", "measurement": "selectivity index", "result": "< 1"}
{"SMILES": "CC1(C)C(C=C(Cl)Cl)C1C(=O)OCc1c(F)c(F)c(F)c(F)c1F (stereo not drawn)", "target or system": "Anopheles funestus", "assay": "tile contact bioassay", "system": "FUMOZ-R, resistant, female adults", "setting": "30 min exposure, 24 h mortality", "measurement": "LC50", "result": "0.0446 mg/m²"}
{"SMILES": "CN[C@](C)(C[18F])C(=O)O", "target or system": "A549 tumour model", "system": "host not given, blood", "setting": "30 min, tumour-bearing", "measurement": "tracer uptake", "result": "1.8 %ID/g"}
{"SMILES": "CC[C@H](C)[C@H](NC(=O)[C@H](CCCCN)NC(=O)[C@H](C)NC(=O)[C@H](CC(C)C)NC(=O)[C@H](C)NC(=O)[C@H](CO)NC(=O)[C@H](CC(C)C)NC(=O)[C@H](CC(C)C)NC(=O)[C@H](CCCCN)NC(=O)[C@@H]1CCCN1C(=O)[C@H](CC(C)C)NC(=O)[C@H](Cc1ccccc1)NC(=O)[C@H](CCCCN)NC(=O)[C@H](CCCCN)NC(=O)[C@H](CCCCN)NC(=O)[C@H](CCCCN)NC(=O)[C@H](CCCCN)NC(=O)[C@@H](N)CCCCN)C(=O)N[C@@H](CC(C)C)C(N)=O", "target or system": "Galleria mellonella", "setting": "concentration not given, uninfected larvae, per concentration doubling", "measurement": "mortality increase", "result": "40% and 20%"}
{"SMILES": "NCCCn1c2ccc([N+](=O)[O-])cc2c(=O)n1Cc1ccccc1", "target or system": "Leishmania amazonensis", "system": "mouse peritoneal macrophages", "setting": "intracellular amastigotes", "how to read": "baseline: CC50 macrophages over IC50 amastigotes", "measurement": "selectivity index", "result": 15}
{"SMILES": "CC1(C)C(C=C(Cl)Cl)C1C(=O)OCc1ccc(F)cc1 (stereo not drawn)", "target or system": "Anopheles funestus", "assay": "tile contact bioassay", "system": "FUMOZ-R, resistant, female adults", "setting": "30 min exposure, 24 h mortality", "measurement": "LC50", "result": "1.41 mg/m²"}
{"SMILES": "COc1ccc(C[C@H]2C(=O)N(C)[C@@H](Cc3ccc(O)cc3)C(=O)N(C)[C@@H](Cc3ccccc3)C(=O)N[C@@H](CC(N)=O)C(=O)NCC(=O)N(C)[C@@H](Cc3ccc(O)cc3)C(=O)N[C@@H](CC(N)=O)C(=O)N[C@@H](Cc3c[nH]cn3)C(=O)N[C@@H](Cc3ccc(O)cc3)C(=O)N[C@@H](Cc3c[nH]c4ccccc34)C(=O)N[C@H](C(N)=O)CSCC(=O)N[C@H](Cc3ccc(O)cc3)C(=O)N[C@@H](CC(=O)O)C(=O)N[C@@H](CO)C(=O)N[C@@H](Cc3ccc(O)cc3)C(=O)N[C@@H](C)C(=O)N2C)cc1", "target or system": "cofactor-independent phosphoglycerate mutase W431C", "assay": "biochemical", "system": "Mycoplasma orale", "measurement": "AC50", "result": "2040 nM"}
{"SMILES": "NCC(=O)N[C@@H](Cc1ccccc1)C(=O)N[C@@H](Cc1ccccc1)C(=O)N[C@@H](CC(=O)O)C(=O)O", "target or system": "Aplysia californica", "system": "ganglion homogenate", "setting": "50 µM, pH 7.4, 37 °C", "measurement": "half-life", "result": "8.4 min"}
{"SMILES": "CCCCNCC(O)Cn1c2ccc(Cl)cc2c2cc(Cl)ccc21 (stereo not drawn)", "target or system": "Schistosoma japonicum", "setting": "10 µg/mL, juvenile schistosomula", "measurement": "mortality", "result": "100%"}
{"SMILES": "C[C@@H](O)[C@H](NC(=O)[C@H](Cc1ccc(O)cc1)NC(=O)[C@@H]1CCCN1C(=O)OCC1c2ccccc2-c2ccccc21)C(=O)N[C@@H](CCCNC(=N)N)C(=O)N[C@@H](CO)C(=O)NCC(=O)N1CCC[C@H]1C(=O)NCC(=O)N[C@@H](Cc1c[nH]c2ccccc12)C(=O)N[C@@H](CO)C(=O)N[C@@H](CO)C(=O)N[C@@H](Cc1c[nH]cn1)C(=O)O", "target or system": "Escherichia coli", "assay": "bacterial growth, OD600", "system": "BL21, LB medium", "setting": "6 h", "measurement": "CC50", "result": "> 200 µg/mL"}
{"SMILES": "CC(=NNC(=N)N)c1nnn(-c2ccc(C#CC3(O)CCCCC3)cc2)c1C", "target or system": "Escherichia coli", "system": "Caco-2, JW55031 tolC mutant", "how to read": "baseline: Caco-2 IC50 over MIC", "measurement": "selectivity index", "result": 0.69}
{"SMILES": "CC1(C)C(C=C(Cl)Cl)C1C(=O)OCc1c(F)ccc(F)c1F (stereo not drawn)", "target or system": "Anopheles funestus", "assay": "tile contact bioassay", "system": "FANG, susceptible, female adults", "setting": "30 min exposure, 24 h mortality", "measurement": "LC50", "result": "0.0494 mg/m²"}
{"SMILES": "COc1ccc(CNc2nc(N3CCC[C@H]3CO)ncc2C(=O)NNC(=O)c2cnc(N3CCC[C@H]3CO)nc2NCc2ccc(OC)c(Cl)c2)cc1Cl", "target or system": "Salmonella typhimurium", "system": "TA102", "setting": "62.5 µg/plate", "measurement": "revertant count", "result": "274 ± 6"}
{"SMILES": "CCC(=O)N(C)c1ccc(Cl)c(Cl)c1", "target or system": "Salmonella typhimurium", "assay": "Ames test", "system": "TA1535", "setting": "0.10 mg/plate, with rat liver S9", "measurement": "revertant colonies", "result": "18 ± 6.4 revertants/plate"}
{"SMILES": "O=c1c2cc([N+](=O)[O-])ccc2n(CCN2CCCC2)n1Cc1ccccc1", "target or system": "Leishmania amazonensis", "system": "promastigotes, MHOM/BR/77/LTB0016", "how to read": "baseline: CC50 macrophages over IC50 promastigotes", "measurement": "selectivity index", "result": 195}
{"SMILES": "CC[C@H](C)[C@H](NC(=O)[C@@H](CCCNC(=N)N)NC(=O)[C@H](CCCNC(=N)N)NC(=O)[C@H](Cc1ccccc1)NC(=O)[C@H](Cc1c[nH]c2ccccc12)NC(=O)[C@H](CCCNC(=N)N)NC(=O)[C@@H]1CCCN1C(=O)[C@H](CCCNC(=N)N)NC(=O)[C@@H]1CCCN1C(=O)[C@H](CC(C)C)NC(=O)[C@H](Cc1ccc(O)cc1)NC(=O)[C@@H]1CCCN1C(=O)[C@@H]1CCCN1C(=O)[C@H](CCCCN)NC(=O)[C@H](CC(=O)O)NC(=O)[C@@H](N)C(C)C)C(=O)N[C@@H](Cc1ccc(O)cc1)C(=O)N[C@@H](CC(N)=O)C(=O)N[C@H](CCCNC(=N)N)C(N)=O", "target or system": "Acinetobacter baumannii", "assay": "LC-MS", "setting": "8 µg/mL, 30 min", "measurement": "cellular peptide amount", "result": "475 ng"}
{"SMILES": "CC(=O)OCCn1c2ccc([N+](=O)[O-])cc2c(=O)n1Cc1ccccc1", "target or system": "Leishmania amazonensis", "system": "promastigotes, MHOM/BR/77/LTB0016", "how to read": "baseline: CC50 macrophages over IC50 promastigotes", "measurement": "selectivity index", "result": 191}
{"SMILES": "COc1ccc(CNc2nc(N3CCC[C@H]3CO)ncc2C(=O)NN)cc1Cl", "target or system": "Salmonella typhimurium", "system": "TA1535", "setting": "1000 µg/plate, 48 h, with: rat liver S9", "measurement": "revertant count", "result": "57 ± 2"}
{"SMILES": "N=C(N)NCCC[C@@H]1NC(=O)[C@H](CCCCNC(=O)CNC(=O)CNC(=O)CNC(=O)CC[C@H](NC(=O)CCOCCOCCOCCOCCNC(=O)CC[C@H](NC(=O)CN2CCN(CC(=O)O)CCN(CC(=O)O)CCN(CC(=O)O)CC2)C(=O)NCCOCCOCCOCCOCCC(=O)N[C@@H](CCC(=O)NCC(=O)NCC(=O)NCC(=O)NCCCC[C@@H]2NC(=O)[C@@H](Cc3ccccc3)NC(=O)[C@H](CC(=O)O)NC(=O)CNC(=O)[C@H](CCCNC(=N)N)NC2=O)C(=O)NCC(=O)NCC(=O)NCC(=O)NCCCC[C@@H]2NC(=O)[C@@H](Cc3ccccc3)NC(=O)[C@H](CC(=O)O)NC(=O)CNC(=O)[C@H](CCCNC(=N)N)NC2=O)C(=O)NCC(=O)NCC(=O)NCC(=O)NCCCC[C@@H]2NC(=O)[C@@H](Cc3ccccc3)NC(=O)[C@H](CC(=O)O)NC(=O)CNC(=O)[C@H](CCCNC(=N)N)NC2=O)NC(=O)[C@@H](Cc2ccccc2)NC(=O)[C@H](CC(=O)O)NC(=O)CNC1=O [indium-111 labelled]", "system": "female athymic nude mice, brain", "setting": "intravenous, 3 µCi, 4 h, U-87 MG glioma xenograft", "measurement": "tissue uptake", "result": "0.06 ± 0.02 %ID/g"}
{"note": "A few entries again:"}
{"SMILES": "CC1(C)C(C=C(Cl)Cl)C1C(=O)OCc1ccc(F)cc1 (stereo not drawn)", "target or system": "Anopheles funestus", "assay": "tile contact bioassay", "system": "FUMOZ-R, resistant, female adults", "setting": "30 min exposure, 24 h mortality", "measurement": "LC50", "result": "1.41 mg/m²"}
{"SMILES": "O=c1c2cc([N+](=O)[O-])ccc2n(CCN2CCCC2)n1Cc1ccccc1", "target or system": "Leishmania amazonensis", "system": "promastigotes, MHOM/BR/77/LTB0016", "how to read": "baseline: CC50 macrophages over IC50 promastigotes", "measurement": "selectivity index", "result": 195}
